Results pooled from the literature.
A part holds a random share of what one study measured. Positions count from the first letter of the parent shown.

Block 1
Target: Sal-like protein 4, full length isoform B (SALL4, Homo sapiens, UniProt Q9UJQ4-2, residues 1-616)
Technique: universal PBM
Form: double-stranded DNA, one strand shown
Matrix: in vitro
Concentration: not given
Notes: 8-mer, flanks averaged, mean of replicates
Reading: higher = stronger binding
Strand	E-score
AACGGATT	0.2
GGGGCGAC	-0.332
GAATGGGC	-0.165
GGTAGCTA	0.0158
ATTAGCGA	0.179
CCCCAAAG	-0.218
CTGGCCTC	-0.278
GGTTTAAA	0.187
GCGCGCCA	-0.091
CGCAAATA	0.241
CCTTAGAG	-0.151
CCCGGGCG	-0.358
ACCCAGTG	-0.259
CACAACAA	0.186
GATAGTCC	0.0292
ACAGATTC	0.131
AAGCTTTG	0.0227
CGATACTA	0.2
GAAATATC	0.217
ATTGTAAC	0.212
CCTCATCC	-0.187
GCTAACGA	-0.00586
GCTGAACA	-0.0417

Block 2
Target: Prothrombin, mature alpha-thrombin (F2, Homo sapiens, UniProt P00734)
Technique: aptamer microarray, sandwich
Form: DNA with 2'F-ANA
Matrix: in vitro
Concentration: 200 nM
Notes: whole 15-mer aptamer, many near background
With: Cy3 exosite-II aptamer, 400 nM
Reading: higher = stronger binding
Strand: GGTTGGTGTGGTTGG
Modification	mean fluorescence intensity [a.u.]
2'F-ANA at 3 6 7 9 13	695
2'F-ANA at 4 5 6 7 11 13 15	50.4
2'F-ANA at 1 4 7 11 12 13	163
2'F-ANA at 3 4 5 8 9 12	234
2'F-ANA at 1 2 3 4 5 7 9 10 13 14	99.2
2'F-ANA at 1 2 4 10 12 13 14 15	49.4
2'F-ANA at 1 2 3 4 7 8 10 12	77.8
2'F-ANA at 1 3 4 7 8 9 10 13 15	62.2
2'F-ANA at 3 4 6 7 8 9 10 13	250
2'F-ANA at 1 3 14	93
2'F-ANA at 6 7 8 11 12 13 14	221
2'F-ANA at 2 4 5 8 10 11 15	44.3
2'F-ANA at 2 5 6 9 11 12 14 15	43.7
2'F-ANA at 2 12 13 14 15	185
2'F-ANA at 1 2 3 4 5 9 11 12 13	77.8
2'F-ANA at 3 4 5 13 14 15	49.8
2'F-ANA at 1 2 3 6 8 9 11 13 14	65.4
2'F-ANA at 2 4 7 10 12 14 15	114
2'F-ANA at 1 2 6 7 8 9 10 11 13 14 15	51.8
2'F-ANA at 1 6 7 8 13 14 15	58.4
2'F-ANA at 4 7 10 11 14 15	63.8
2'F-ANA at 1 3 5 6 7 9 10	44.8
2'F-ANA at 1 3 6 7 8 10 11 13 14	65
2'F-ANA at 7 8 14	280

Block 3
Target: Histone acetyltransferase KAT6A, winged helix 1, GST fusion (KAT6A, Homo sapiens, UniProt Q92794, residues 1-85)
Technique: protein binding microarray
Form: double-stranded DNA, one strand shown
Matrix: in vitro
Concentration: not given
Notes: 8-mer, flanks averaged, mean of 2 arrays, mostly near background
Reference: not given
Reading: higher = stronger binding
Construct (chain): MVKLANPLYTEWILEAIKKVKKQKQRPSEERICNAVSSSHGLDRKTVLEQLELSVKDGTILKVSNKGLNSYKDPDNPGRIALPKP
Strand	E-score
GCCAGCAA	-0.151
ACCTGCAT	-0.141
ACCTGACT	-0.203
CGGTTCGA	0.0947
GATGTCCA	-0.0147
CCGATGTA	0.112
CGAACTCG	-0.0901
GGCTGGTA	0.00107
AGACACCT	-0.0231
CGTATGTA	0.0272
GCCAGGGA	-0.184
TAAGGCGA	0.00918
CTTTAGAC	-0.25
TAAAACAA	-0.154
ACAGGACC	0.0596
AAACCTGG	-0.158
AGCTTCGA	-0.169
CCCGGTAG	0.282
ATGTCATA	-0.0453
ACTTCCGA	0.0134
AAAAACGA	-0.107
GCCGGCAA	0.421
ACGGCGGG	0.451
GCATGGCA	0.0976
ACGAAGGA	-0.131

Block 4
Target: CCND2, cyclin fold, Cln2 fusion (human)
Technique: yeast growth competition, sequencing
Matrix: yeast
Notes: weak parent motif
Reference: not given
Reading: higher = stronger binding
Starting sequence: HIRA docking peptide (human); SLSKRKLELEVET; partner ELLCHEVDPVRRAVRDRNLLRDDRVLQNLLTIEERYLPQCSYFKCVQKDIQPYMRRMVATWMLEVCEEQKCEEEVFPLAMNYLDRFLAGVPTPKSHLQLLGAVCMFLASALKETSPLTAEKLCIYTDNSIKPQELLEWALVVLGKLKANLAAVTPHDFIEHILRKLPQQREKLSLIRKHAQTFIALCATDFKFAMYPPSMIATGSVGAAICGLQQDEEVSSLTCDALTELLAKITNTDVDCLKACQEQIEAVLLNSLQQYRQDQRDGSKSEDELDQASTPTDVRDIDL
Substitution	normalised enrichment score
L9F	0.227
K6A	0.246
L9A	0.73
K4A	-0.0808
R5K L9F	0.0222
S3A	0.045
L7A	-0.348
E10A	-0.0468
R5A	-0.274

Block 5
Target: RING finger protein unkempt homolog, zinc fingers 1-6, GST-SBP tag (UNK, Homo sapiens, UniProt Q9C0B0, residues 30-357)
Chain of UniProt Q9C0B0 (30-357, looked up): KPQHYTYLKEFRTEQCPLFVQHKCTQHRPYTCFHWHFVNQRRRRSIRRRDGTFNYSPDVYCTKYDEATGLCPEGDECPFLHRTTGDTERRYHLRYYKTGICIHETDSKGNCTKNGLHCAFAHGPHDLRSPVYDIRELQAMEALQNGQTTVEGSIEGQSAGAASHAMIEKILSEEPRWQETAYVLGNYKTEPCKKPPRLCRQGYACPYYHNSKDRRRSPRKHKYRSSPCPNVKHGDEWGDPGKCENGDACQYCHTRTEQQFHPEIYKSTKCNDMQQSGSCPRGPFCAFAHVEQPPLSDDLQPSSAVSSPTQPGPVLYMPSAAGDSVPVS
Technique: RNA Bind-n-Seq
Form: RNA
Matrix: in vitro
Concentration: not given
Notes: RNA with constant flanks, human and mouse sites, ends assumed
Reference: input RNA pool
Reading: higher = stronger binding
All sequences stand within: GGGAGUUCUACAGUCCGACGAUC … CAACAGAGGAUUGAGCAUCA
Strand	bound/input enrichment [ratio]
ACUGGCCCUCUGGUUCACUUCUAUUAUGAAUAAAUUUGCACCAAUAGCCCCAUUAGUUUUUAAAGAAAUGAGCUGGGUGGGAAAAGUGGAAAUGUAAUUUCUGGUAAGCUUGAGCUACUU	1.56
UCAUCAAAGAUAUUGUCUGCUGAAAGUUCAUCUAGUACAGAAACUUCGGUGGUCAGCAGUAGUUCAGUUUCUAAUGCCACUUUUUCUGGAACUCCUCCACAGCCUACAAGUCGGAGACAA	0.245
AAAUAUUUAAACUUGCAUUUGAAUAUAAAAAAAAAUCUAUUUUUCUAGAACUUCAUAAGAUAACCACUUGAUUUUGUGAUUCCAAUUCUUUGUAACUGUCUCAGAGCAGCCCUACUAGCA	1.64
CUCUUGCUGCUGCUGCUCUGCAUCCAGCUCGGGGGCGGACAGAAGAAAAAGGAGAACCUUUUGGCUGAAAAAGUGGAGCAGCUGAUGGAAUGGAGUUCCAGGCGCUCGAUCUUCAGAAUG	0.146
AAAACUAUUCUACAGUGCAAAAAAUACCAGCGAACUCCUGUUUAAGAAAAAUAUCCUUGAUUUAGUAAAUGAAUUUCCUGAGAAGAUUGCAUGCAGUUUGCAUGUUACAAAACAGACUAC	8.41
AAUCAUGUGGGAAAGCCGUUACUGAAGAAGCCGAUGGGACCAGCCCACUGGGAAAAGAUAGAAGCCAUUAACCAAGCCAUAGCCAAUGAAUAUGAAGUCCGGAGGAAGCUGCUAAUCAAA	0.885
CUGUUGGAUGGUUUUCCAAGGACACUUCCACAGGCAGAAGCCCUAGAUAGAGCUUAUCAGAUCGACACAGUGAUUAACCUGAAUGUGCCCUUUGAGGUCAUUAAACAACGCCUUACUGCU	0.299
GAUAGGAAAAACUUGUUGGAGACCCGAUUGCACAUCACUGGCAGAGAACUGAGGUCCAAAAUAGCUGAAACCUUUGGACUUCAAGAAAAUUAUAUCAAAAUUGUCAUAAAUAAGAAGCAA	0.695
UGCCUGCCUUCAAUCCUGGCCAAGUUGGAGUAGACUGGUAUGAGAAAACUAUGAUUAGUUCACAUUUACUGGUGCAUCCUUGAUCCUCUCACAGAUAGAGGUCUUAAAGGUUGGAUCAUG	0.356
GACCUAUAUCACAAAGGCCUCCUUAAAUUUUCACUGGAUGCCGUAUCUCUGAAGGAUACUCUAGUUAUGCUGGUUGUUGACAUGUCAAAGCCUUGGACUGCUUUGGAUUCUUUACAGAAA	0.4
CCUCGAGCAGUAAAUGGAUUUUCCUGGCGUAAAACAAGCAAAUAUAUGCCUAGGGCUUCUGUAUGUAAUGUACUGUUGACUUGCUGCAAAGAUAAUGUGUGUCGUCUUUGGGUAGAGACA	0.196

Block 6
Target: Interferon regulatory factor 3, full length, phosphomimetic (IRF3, Homo sapiens, UniProt Q14653, residues 1-427, S386D/S396D/S398D/S402D/T404D/S405D)
Technique: protein-binding microarray
Form: double-stranded DNA, one strand shown
Matrix: in vitro
Concentration: 2540 nM top
Notes: 60-bp whole probe
With: salmon DNA 0.4 mg/ml
Reference: random background probes
Reading: higher = stronger binding
All sequences stand within: GCCTAGCAC … GTCTTGATTCGCTTGACGCTGCTG
Construct (chain): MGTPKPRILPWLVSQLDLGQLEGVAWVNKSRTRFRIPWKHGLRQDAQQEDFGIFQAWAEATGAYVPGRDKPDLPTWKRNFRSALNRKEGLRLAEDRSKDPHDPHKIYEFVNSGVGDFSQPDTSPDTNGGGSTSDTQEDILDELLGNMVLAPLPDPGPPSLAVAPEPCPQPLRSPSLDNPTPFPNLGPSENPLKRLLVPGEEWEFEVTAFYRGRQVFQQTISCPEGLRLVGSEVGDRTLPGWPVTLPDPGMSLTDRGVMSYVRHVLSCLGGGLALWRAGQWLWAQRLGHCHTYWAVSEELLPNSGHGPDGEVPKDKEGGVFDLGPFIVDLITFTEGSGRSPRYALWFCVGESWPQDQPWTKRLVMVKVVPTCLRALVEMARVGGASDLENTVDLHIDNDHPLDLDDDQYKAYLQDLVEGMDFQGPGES
Strand	fitted relative affinity [z-score]
GACGATCTCAGTCTGGAGACGTGCTAG	0.378
TTCGATTTCAGTTTCGATTAGTGCTAG	5.62
GACGGTTCCCCTTTCCTGACGTGCTAG	4.31
GACGGTTTCGGTTCCGTGACGTGCTAG	9.47
TCATGTTTCTCAACCATACTGTGCTAG	1.39
TTAGGGTTCCTTTTCCTTTAGTGCTAG	6.71
CATCATTGCTTTCTCTTTCAGTGCTAG	2.31
TTAGGTATCGTGACTGGGTTAGTGCTA	-0.00691
GACGGTATCGACACTGGAGACGTGCTA	0.591
GACGGTCACGGTATCGGGACGTGCTAG	0.507
TTAGGTCTCGGTTTCGGTAAGTGCTAG	4.53
TCATTATGCTCTTTCTAACTGTGCTAG	1.15
TGCTGTGTACATCTCTCTTAGTGCTAG	0.108
TTAGGACTGGGTATCGGATAGTGCTAG	0.242
TTGGGACTGCTTATCCTTTAGTGCTAG	-0.348
GACGGTACCGGGACTGGGGACGTGCTA	-0.144
TTAGGTTTCAGTCTCGGTTAGTGCTAG	5.13
CACGGACTGCTTATCCTGACGTGCTAG	-0.437
TTAGGTACCGGGTATCGGTTAGTGCTA	1.13
TCAATTTTAGTTTTCATACTGTGCTAG	3.35
GACGATTTCAGTTCCCAGACGTGCTAG	3.44
GAAGGTTCCCTTTTCCTGACGTGCTAG	6.95
GACGAACTGTGACTGGAGACGTGCTAG	-0.406
TCACTTTCCATTTCTGTTACTGTGCTA	8.9

Block 7
Target: ATP-dependent RNA helicase DDX3X, helicase core (DDX3X, Homo sapiens, UniProt O00571, residues 132-607)
Chain of UniProt O00571 (132-607, looked up): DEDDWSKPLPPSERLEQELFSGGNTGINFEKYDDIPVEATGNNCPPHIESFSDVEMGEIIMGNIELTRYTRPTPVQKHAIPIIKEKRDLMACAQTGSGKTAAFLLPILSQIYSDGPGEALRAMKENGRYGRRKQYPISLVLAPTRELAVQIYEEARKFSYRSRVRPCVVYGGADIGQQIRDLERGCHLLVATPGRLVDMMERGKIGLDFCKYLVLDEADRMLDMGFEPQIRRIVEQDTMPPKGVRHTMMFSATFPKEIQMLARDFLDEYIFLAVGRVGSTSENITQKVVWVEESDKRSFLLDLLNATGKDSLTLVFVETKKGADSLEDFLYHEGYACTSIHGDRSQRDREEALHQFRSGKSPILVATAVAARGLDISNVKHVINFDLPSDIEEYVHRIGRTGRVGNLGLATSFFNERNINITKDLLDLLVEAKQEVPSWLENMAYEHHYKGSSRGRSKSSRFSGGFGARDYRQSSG
Technique: RNA Bind-n-Seq
Form: RNA
Matrix: in vitro
Concentration: not given
Notes: 4-mer, random 30-nt RNA, single round
With: RocA, ADP, phosphate
Reference: input library
Reading: higher = stronger binding
Strand	4-mer enrichment
AUUG	0.969 fold
GGGC	1.02 fold
UCGA	1.07 fold
UCAC	0.673 fold
ACAG	0.824 fold
CAAG	0.956 fold
AGUA	1.34 fold
AUUU	0.939 fold
UCGG	1.07 fold
CAAA	0.832 fold
GGAU	1.05 fold
AACA	0.828 fold
CACA	0.74 fold
UUUC	0.769 fold
UUGC	0.743 fold

For quick reference, copied from above (block 1):
Strand	E-score
GGGGCGAC	-0.332
GAATGGGC	-0.165
GGTAGCTA	0.0158
ATTAGCGA	0.179
CCCCAAAG	-0.218
CTGGCCTC	-0.278
GGTTTAAA	0.187
GCGCGCCA	-0.091
CGCAAATA	0.241
CCTTAGAG	-0.151
CCCGGGCG	-0.358
ACCCAGTG	-0.259
CACAACAA	0.186
GATAGTCC	0.0292
ACAGATTC	0.131
AAGCTTTG	0.0227
CGATACTA	0.2
GAAATATC	0.217
